# Assay results of several laboratories.
# Lines come from different studies, so protocols differ. Values joined by “and” are separate records of one study, mostly repeats; a detail may differ. ± marks the error that the study gave.
SMILES,assay,test system,setting,scale,quantity,value
CCN(CC)c1ccc2c(-c3ccc(S(=O)(=O)NCCNC(=O)CN4CCN(CC(=O)[O-])CCN(CC(=O)O)CCN(CC(=O)[O-])CC4)cc3S(=O)(=O)[O-])c3ccc(=[N+](CC)CC)cc-3oc2c1.[64Cu+2],microPET imaging,"athymic nude mice, U-87 MG glioma xenograft","250 µCi, 1 h post-injection",,tumour uptake,6.53 ± 0.48 %ID/g
COc1ccc([C@@H]2CC(=O)c3c(O)cc(O[C@@H]4O[C@H](CO[C@@H]5O[C@@H](C)[C@H](O)[C@@H](O)[C@H]5O)[C@@H](O)[C@H](O)[C@H]4O)cc3O2)cc1O,,rat plasma,"31.25 ng/mL, 12 h, room temperature, autosampler stability",,measured concentration,30 ± 0.31 ng/mL
COc1ccc(-c2cc(=O)c3c(O)cc(O[C@@H]4O[C@H](CO[C@@H]5O[C@@H](C)[C@H](O)[C@@H](O)[C@H]5O)[C@@H](O)[C@H](O)[C@H]4O)cc3o2)cc1,freeze-thaw stability,rat plasma,"3 days, high QC, 3 freeze-thaw cycles",,measured concentration,2962 ± 18.5 ng/mL
CCCCCCCCCCCCCCCC(=O)N[C@@H](CCC(=O)NCCCC[C@H](NC(=O)[C@H](C)NC(=O)[C@H](C)NC(=O)[C@H](CCC(N)=O)NC(=O)CNC(=O)[C@H](CCC(=O)O)NC(=O)[C@H](CC(C)C)NC(=O)[C@H](Cc1ccc(O)cc1)NC(=O)[C@H](CO)NC(=O)[C@H](CO)NC(=O)[C@@H](NC(=O)[C@H](CC(=O)O)NC(=O)[C@H](CO)NC(=O)[C@@H](NC(=O)[C@H](Cc1ccccc1)NC(=O)[C@@H](NC(=O)CNC(=O)[C@H](CCC(=O)O)NC(=O)[C@H](C)NC(=O)[C@@H](N)Cc1cnc[nH]1)[C@@H](C)O)[C@@H](C)O)C(C)C)C(=O)N[C@@H](CCC(=O)O)C(=O)N[C@@H](Cc1ccccc1)C(=O)N[C@H](C(=O)N[C@@H](C)C(=O)N[C@@H](Cc1c[nH]c2ccccc12)C(=O)N[C@@H](CC(C)C)C(=O)N[C@H](C(=O)N[C@@H](CCCNC(=N)N)C(=O)NCC(=O)N[C@@H](CCCNC(=N)N)C(=O)NCC(=O)O)C(C)C)[C@@H](C)CC)C(=O)O,,simulated intestinal fluid with pancreatin,"2 h, pH 6",,metabolised fraction,95.5%
COc1cc(OC)cc(C2=C3C(C)=C(I)C(C)=[N+]3[B-](F)(F)n3c(/C=C/c4c[nH]c5ccccc45)c(I)c(C)c32)c1,,THF,,,Stokes shift,979 cm⁻¹
CC(C)(O)c1ncc([S@](N)(=O)=NC(=O)Nc2c3c(cc4c2CCC4)CCC3)s1,,"healthy human volunteers, plasma","oral, 25 mg twice daily, day 14, fed, enteric-coated tablet",,dose-normalised AUC(0-tau),1080 ng·h/mL/mg
COCCOCCOCCOCCOCCOCCOCCOCCC(=O)NCCCc1cc2cc3nc(cc4[nH]c(cc5nc(c(OC)c1[nH]2)C(=O)C5(C)C)cc4CCc1ccc(C(=O)O)cc1)CC3(C)C,,DMF,room temperature,,Qy emission maximum,684 nm
C[C@H](CN(C)Cc1ccccc1)NC(=O)c1ccc(-c2noc(C(F)(F)[18F])n2)cc1,PET imaging,"female Sprague-Dawley rats, cerebellum","intravenous, 1 min",,tissue uptake,3.01 ± 1.08 SUV
N=C(N)NCCC[C@H](NC(=O)[C@@H]1CSSC[C@H](NC(=O)[C@H](Cc2ccc3ccccc3c2)NC(=O)[C@H](CCCNC(=N)N)NC(=O)[C@H](CCCNC(=N)N)NC(=O)CN2CCN(CC(=O)O)CCN(CC(=O)O)CCN(CC(=O)O)CC2)C(=O)N[C@@H](Cc2ccc(O)cc2)C(=O)N[C@@H](CCCNC(N)=O)C(=O)N[C@@H](CCCCN)C(=O)N[C@H](CCCCN)C(=O)N2CCC[C@H]2C(=O)N[C@@H](Cc2ccc(O)cc2)C(=O)N[C@@H](CCCNC(=N)N)C(=O)N[C@@H](CCCNC(N)=O)C(=O)N1)C(N)=O [copper-64 labelled],,"mice, CHO-CXCR4 tumour and spleen","4 h, added: unlabeled peptide 50 µg",,tumour and spleen uptake,inhibited
O=C(O)CN1Cc2cccc(n2)CN(CC(=O)O)Cc2cccc(n2)C1,"UV-vis spectrophotometric titration, refers to: HL/L- equilibrium",MeOH/water with NaCl,"50 µM, room temperature, NaCl 0.1 M, MeOH ≤20% v/v",,pKa4,8.18
CC(C)c1cnc(-c2cc(Cl)ccc2F)cc1Nc1ccncc1C(=O)NC(CO)CO,refers to: Headache,solid tumour patients,"oral, dose not given, phase I monotherapy",,treatment-related adverse events,14.3%
CCCC[C@H](NC(=O)CNC(=O)CNC(=O)CN1CCN(CC(=O)O)CCN(CC(=O)O)CCN(CC(=O)O)CC1)C(=O)N[C@H]1Cc2cn(nn2)CCCC[C@@H](C(N)=O)NC(=O)[C@H](Cc2c[nH]c3ccccc23)NC(=O)[C@H](CCCNC(=N)N)NC(=O)[C@@H](Cc2ccccc2)NC(=O)[C@H](Cc2c[nH]cn2)NC1=O,,"SCID hairless mouse, female, urine and feces","intravenous, 7.5 MBq, 90 min, 68Ga labelled",,excretion,78.8 ± 8.6%
NCC(=O)N1CCC[C@H]1C(=O)N1C[C@H](O)C[C@H]1C(=O)O,potentiometric titration,water,"40 °C, 0.15 mol/dm3 NaCl",,pKa3,7.18
O=C([O-])CN1CCN(CC(=O)[O-])CCN(CC(=O)NCC2CCC(C(=O)NC(Cc3ccc4ccccc4c3)C(=O)NCCCCC(NC(=O)NC(CCC(=O)O)C(=O)O)C(=O)O)CC2)CCN(CC(=O)[O-])CC1.[44Sc+3] (stereo not drawn),"PET/CT dosimetry, OLINDA/EXM","human, salivary glands",,,residence time,0.026 h and 0.021 h and 0.01 h
C[N+](C)(C)CCO.O=C([O-])[C@@H](O)Cc1ccccc1,thermogravimetric analysis,,"5% mass loss, nitrogen",,decomposition temperature,93.7 °C
Cc1cc(C(=O)N[C@@H](CO)CC(C)C)ccc1CO,LC-MS,"Sprague-Dawley rats, pooled sexes, plasma","oral, 100 mg/kg of parent drug, 1 h",baseline: total metabolite peak area,metabolite peak area,19.1%
COc1cc(N(C)CCN(C)C)c(NC(=O)CCSCC(NC(C)=O)C(=O)O)cc1Nc1nccc(-c2cn(C3CC3)c3ccccc23)n1 (stereo not drawn),radio-HPLC,"human, feces","dose not given, 48 to 96 h, sample holds 20.06% dose",baseline: sample radioactivity,share of radioactivity,3.05%
CCCC[C@@H]1NC(=O)[C@@H](NC(=O)[C@H](CCC(=O)O)NC(=O)CNC(=O)CN2CCN(CC(=O)O)CCN(CC(=O)O)CCN(CC(=O)O)CC2)CCCCNC(=O)C[C@@H](C(N)=O)NC(=O)[C@H](C(C)C)NC(=O)[C@@H]2CCCN2C(=O)[C@H](CCCNC(=N)N)NC(=O)CNC(=O)[C@H](Cc2c[nH]c3ccccc23)NC(=O)[C@H](CCCNC(=N)N)NC(=O)[C@@H](Cc2ccccc2)NC(=O)[C@H](Cc2c[nH]cn2)NC(=O)[C@H](CCC(=O)O)NC1=O [gallium-67 labelled],,"C57 mice with B16/F1 melanoma, spleen","intravenous, 0.037 MBq, 0.5 h",,tissue uptake,0.41 ± 0.22 %ID/g
C[C@]12CC[C@@H]3c4ccc(OCC(=O)N[C@@H](CCCCNC(=O)CN5CCN(CC(=O)[O-])CCN(CC(=O)[O-])CCN(CC(=O)[O-])CC5)C(=O)O)cc4CC[C@H]3[C@@H]1CCC2=O.[177Lu+3],,"female nude mice, MCF7 xenograft",1 h post injection,,tumour uptake,3.79 ± 0.87 % IA/g
C[N+]1(CC(=O)OC2CCCCCCCCCCC2)CCCCC1,,"mouse, plasma","intraperitoneal, 2.5 mg/kg, single dose",,half-life,1.2 h
O=C1c2sc(-c3ccc(N4CCC(CO)CC4)nc3F)nc2CCN1c1cccnc1,PET imaging,"rhesus monkey, whole brain",intravenous bolus,,time to peak uptake,4.5 min
OCc1cn(Cc2ccc(-c3noc(-c4ccc(OCC[18F])c(C(F)(F)F)c4)n3)cc2)nn1,,"rat, heart","intravenous, 1 h",,tracer uptake,1.05 %ID/g
O=c1nc(NO)ccn1[C@@H]1O[C@H](CO)[C@@H](O)[C@H]1O,"RT-PCR, refers to: CYP2E1","rats, CFA-induced arthritis, liver","oral, 80 mg/kg twice daily, 5 days",baseline: untreated arthritic rats,mRNA level,< 0.5 fold
Cn1c(=O)oc2ccc(-c3ccc(CC(C#N)NC(=O)C4CNCCCO4)c(F)c3)cc21 (stereo not drawn),refers to: blood bilirubin increased,human,"60 mg single dose, fasted",,subjects with TEAE,0%
CC1=CC(C)(C)N=C2C=CC(=O)C=C12,LC-MS/MS,"piglets, liver","oral, 50 mg/kg feed of ethoxyquin, 42 days, after glucuronidase",,residue concentration,1.5 ± 1.6 ng/g
COc1cc2c(cc1OC)CN(CCCCn1ccc3cc(OCC[18F])ccc31)C2,,"male CD-1 mouse, bone","intravenous, 280 kBq, 2 min",,tracer uptake,3.4 %ID/g
COc1cc(-c2nc3ccccc3s2)cc(CN2CCN(CC(=O)O)CCN(CC(=O)O)CC2)c1O,UV-Vis pH titration,,"25 °C, ionic strength 0.1 M NaCl",,pKa4,11.8
O=C(CCc1ccc(CNC(C(=O)OC2CCCC2)C2CCCCC2)cn1)NO (stereo not drawn),,"human, plasma","oral, 40 mg single dose, geometric mean",,AUC(0-t),152 ng·h/mL
NC12CNCCNCC(NCc3ccc(CNC(=O)CCCC(=O)NCc4ccc(-c5nncnn5)cc4)cc3)(CNCCNC1)CNCCNC2.[64Cu+2],OLINDA dosimetry,uterus,"24 h pretargeting interval, added: huA33-TCO pretargeting",,mean absorbed dose,0.0413 rad/mCi
C[N+](C)(C)CC(CC(=O)[O-])OC(=O)CCC(=O)Nc1ccn([C@@H]2O[C@H](CO)[C@@H](O)C2(F)F)c(=O)n1 (stereo partly drawn),,THU-treated rat plasma,"15.00 ng/mL, -80 to 20 °C, three freeze-thaw cycles, low QC",,measured concentration,15.2 ± 1.6 ng/mL

# Some of these lines once more:
SMILES,assay,test system,setting,scale,quantity,value
CC(C)(O)c1ncc([S@](N)(=O)=NC(=O)Nc2c3c(cc4c2CCC4)CCC3)s1,,"healthy human volunteers, plasma","oral, 25 mg twice daily, day 14, fed, enteric-coated tablet",,dose-normalised AUC(0-tau),1080 ng·h/mL/mg
COCCOCCOCCOCCOCCOCCOCCOCCC(=O)NCCCc1cc2cc3nc(cc4[nH]c(cc5nc(c(OC)c1[nH]2)C(=O)C5(C)C)cc4CCc1ccc(C(=O)O)cc1)CC3(C)C,,DMF,room temperature,,Qy emission maximum,684 nm
